Measurements of several laboratories.
A part holds a random share of what one study measured. Substitutions count along the parent as printed.

Study 1 — target: CCNB1, cyclin fold, Cln2 fusion (human); technique: yeast growth competition, sequencing; medium: yeast; setting: weak parent motif; reference: not given; direction: higher = stronger binding
Starting sequence: CDC25A docking peptide (human); PPHRRRLLFACSP
| Variant | normalised enrichment score |
| --- | --- |
| PPHRRRLLFASSP [C11S] | 0.37 |
| PPHRRRLLFAKSP [C11K] | -0.0924 |
| PDHRRRLLFACSP [P2D] | 0.15 |
| PPHRRRLLFACSH [P13H] | 0.911 |
| PPHRRRLLFICSP [A10I] | 0.0599 |
| TPHRRRLLFACSP [P1T] | 0.356 |
| PPTRRRLLFACSP [H3T] | 0.698 |
| PPHRRRLLFACAP [S12A] | 0.165 |
| PPHRRRLLFACNP [S12N] | 0.965 |
| PPHRRRLLEACSP [F9E] | 1.07 |
| PPHRRVLLFACSP [R6V] | 0.345 |

Study 2 — technique: DHFR PCA, deep sequencing; medium: yeast; added: (+)-ABA 0.11 µM; reference: wild-type fitted maximum; direction: higher = stronger binding
Target: ABI1, truncated, D143A, DHFR fusion (Arabidopsis thaliana)
Setting: methotrexate growth selection, single substitutions
Starting sequence: PYL1, truncated, DHFR fusion (Arabidopsis thaliana); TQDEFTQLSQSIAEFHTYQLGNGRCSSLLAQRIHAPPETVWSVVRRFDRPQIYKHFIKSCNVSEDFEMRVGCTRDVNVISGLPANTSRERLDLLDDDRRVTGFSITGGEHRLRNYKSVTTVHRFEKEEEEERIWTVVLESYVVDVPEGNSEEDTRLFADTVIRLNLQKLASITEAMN; partner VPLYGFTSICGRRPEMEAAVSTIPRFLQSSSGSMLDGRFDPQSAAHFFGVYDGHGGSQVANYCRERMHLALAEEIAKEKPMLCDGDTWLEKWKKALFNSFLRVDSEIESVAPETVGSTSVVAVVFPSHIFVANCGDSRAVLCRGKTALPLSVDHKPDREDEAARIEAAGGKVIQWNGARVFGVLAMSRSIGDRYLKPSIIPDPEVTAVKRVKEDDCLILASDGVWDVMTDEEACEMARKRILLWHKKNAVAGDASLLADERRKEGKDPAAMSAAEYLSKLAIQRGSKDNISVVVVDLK
| Variant | relative binding score [%] |
| --- | --- |
| L29W | -1.22 |
| L166D | 0.269 |
| V43D | -3.52 |
| N85M | 64.7 |
| E125K | 36.7 |
| F56M | -7.03 |
| V121M | 6.22 |
| E174T | 12.6 |
| K126P | 54.5 |

Study 3 — technique: protein-binding microarray; form: double-stranded DNA, one strand shown; medium: in vitro; concentration: 2200 nM top; setting: 60-bp whole probe; added: salmon DNA 0.4 mg/ml; reference: random background probes; direction: higher = stronger binding; all sequences stand within: GCCTAGCAC … GTCTTGATTCGCTTGACGCTGCTG
Target: Interferon regulatory factor 7, full length, phosphomimetic (IRF7, Homo sapiens, UniProt Q92985, residues 1-503, S471D/S472D/S475D/S476D/S477D/S483D/S484D/S487D)
Residues (chain): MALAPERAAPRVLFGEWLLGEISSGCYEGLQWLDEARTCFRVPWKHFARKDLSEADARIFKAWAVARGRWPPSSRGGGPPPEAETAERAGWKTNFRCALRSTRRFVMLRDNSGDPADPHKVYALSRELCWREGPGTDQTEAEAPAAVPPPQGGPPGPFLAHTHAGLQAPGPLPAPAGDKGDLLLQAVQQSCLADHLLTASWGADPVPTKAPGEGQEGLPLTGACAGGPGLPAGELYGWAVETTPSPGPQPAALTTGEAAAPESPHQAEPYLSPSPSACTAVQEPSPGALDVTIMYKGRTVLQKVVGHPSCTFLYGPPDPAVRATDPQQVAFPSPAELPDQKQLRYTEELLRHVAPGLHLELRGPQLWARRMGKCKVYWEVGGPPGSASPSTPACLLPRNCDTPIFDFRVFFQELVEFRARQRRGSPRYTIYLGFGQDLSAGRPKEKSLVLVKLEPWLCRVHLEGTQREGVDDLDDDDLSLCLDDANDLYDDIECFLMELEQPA
| Oligonucleotide | fitted relative affinity |
| --- | --- |
| GACGGTTTCCTGCTGCTGACGTGCTAG | 1.96 z-score |
| TTAGATTTCAGTCTCGATTCGTGCTAG | 1.89 z-score |
| TCAGTTTTCATTTTATGACTGTGCTAG | 5.01 z-score |
| GACGAAATCAGTATCGAGACGTGCTAG | 0.129 z-score |
| GACGGTTTGGGACTGGGGACGTGCTAG | 0.371 z-score |
| TCATTTTTTTAATTGAAACTGTGCTAG | 0.704 z-score |
| TCATTTCTGAATGTCTTACTGTGCTAG | 1.97 z-score |
| GACGGTTTAGGTCTCGGGACGTGCTAG | 0.544 z-score |
| TCAGAACTGGGGTTTCGATTAGTGCTA | 2.15 z-score |
| TTAGGTTTCGGGACTGGGTCAGTGCTA | 3.31 z-score |
| TTAGCTATCGGGACTGGATTAGTGCTA | -0.279 z-score |

Mixed results
| Molecule | target | assay | test system | setting | scale | quantity | result |
| --- | --- | --- | --- | --- | --- | --- | --- |
| PhoQ, residues 284 288 289 292 302 303 AMDMFI | PhoP, residues 12 14 15 18 19 SEGLL (Escherichia coli, UniProt P23836) | Sort-seq, refers to: YFP reporter | E. coli | PhoQ-PhoP variant library, added: 10 µM Mg2+ | reference: high Mg2+ state, higher = stronger signaling | fold induction | 1.13 |

For quick reference, copied from above (study 3):
| Oligonucleotide | fitted relative affinity |
| --- | --- |
| GACGAAATCAGTATCGAGACGTGCTAG | 0.129 z-score |
| GACGGTTTGGGACTGGGGACGTGCTAG | 0.371 z-score |
| TCATTTTTTTAATTGAAACTGTGCTAG | 0.704 z-score |
| TCATTTCTGAATGTCTTACTGTGCTAG | 1.97 z-score |
| GACGGTTTAGGTCTCGGGACGTGCTAG | 0.544 z-score |
